# Assay results of several laboratories.
# A part holds a random share of what one study measured. Substitutions count along the parent as printed.

# Set 1 — technique: RNA Bind-n-Seq; molecule type: RNA; matrix: in vitro; tested at: not given; relative to: input RNA pool; reading: higher = stronger binding
# Target: RING finger protein unkempt homolog, zinc fingers 1-6, GST-SBP tag (UNK, Homo sapiens, UniProt Q9C0B0, residues 30-357)
# Sequence of UniProt Q9C0B0 (30-357, looked up): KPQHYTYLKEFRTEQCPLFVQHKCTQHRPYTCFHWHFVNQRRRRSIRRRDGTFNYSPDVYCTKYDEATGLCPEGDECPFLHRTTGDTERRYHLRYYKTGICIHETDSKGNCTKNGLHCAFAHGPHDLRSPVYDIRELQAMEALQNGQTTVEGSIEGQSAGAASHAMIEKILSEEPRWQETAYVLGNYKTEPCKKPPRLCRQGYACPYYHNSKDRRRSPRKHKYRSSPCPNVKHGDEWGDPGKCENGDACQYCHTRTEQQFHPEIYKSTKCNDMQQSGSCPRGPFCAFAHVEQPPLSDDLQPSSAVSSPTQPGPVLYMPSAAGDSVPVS
# Notes: RNA with constant flanks, human and mouse sites, ends assumed
# Constant ends, left off below: GGGAGUUCUACAGUCCGACGAUC … CAACAGAGGAUUGAGCAUCA
Strand,bound/input enrichment [ratio]
CGGUAUCCAGACAUCCGCAUUGAAGGCGAGAAUUAUCUCCCUCAACCAAUUUAUAGACACAUAGCAUCUUUCCUGUCAGUCUUCAAACUAGUAUUAAUAGGCUUAAUAAUUGUUGGCAAA,93.9
AGCAUCGUGGUCCUAAUGUGAAGGUUUUACAGGCUCUCUGAAUGGCUGUGAGAAAGCCCAAAGAGAUUGAGUCAUUGUGUAGGAAGCUGCAGAGGAAAGCUUACACUAGCCCUUAAUUAA,0.245
ACUAUUGGAUUUAAUGUGGAGACGGUGACAUACAAAAAUCUCAAAUUCCAAGUUUGGGACUUAGGAGGACAGACAAGUAUCAGGCCAUACUGGAGAUGUUAUUAUUCAAACACAGAUGCA,0.574
UAUUUGAUGCGAGGUCCAUGUCUUCCAUACACCAGCAAACUUGUGAAGACCUUAUUAUAUAACUUUAUCAGACAAGAAAAGCCACCUCCUCCAGGGGCCCAUGUUUUCCCUCAGCAGUCG,0.688
AACAAUUUAUCUUCAGUCACUAAUAUUAAUGUACAAAAGAUGUCUCAGCUUCUUUCUGUGUACCUAGAGGAAAACAAGCUAACUGAGCUGCCGGAAAAGUGUCUAUAUGGACUGAGCAAC,0.986
GGCAAGGUUCGGCUCCUGGCUGAUCCCACUGGGGCCUUUGGGAAGGAGACAGACUUAUUACUAGAUGAUUCGCUGGUGUCCAUCUUUGGGAAUCGACGUCUCAAGAGGUUCUCCAUGGUG,0.151
ACACCUUUGGCCAACAUUUCUUCUGAGUAUCCAAUGCAAAGAUCCAUGCCAGUGGUGCCAUCUUUUGUAGCCAGCAACAGAGCAGAUGAAAAUGCCGCUGCAUACUUUGAGAGUCCUAAU,0.167
AAAGAAAGAAAACCCUCUGUGCACGUUGUCAUGAACUUGCCAGCAAAAGCUAUAGAGUUUCUUAGUGCUUUCAAGUGGCUUUUAGAUGGGCAGCCAUGCAGCAGUGAGUUCCUUCCCAUA,0.231
AUCACUAUUGGAUCCAUCUCUUUCCUUCUGGGAGUUGUACUGCUAGUAAUUAAUCAUAAAUAUAGAAACAGUAGUAACACUGCUGACAUCACCAUUUAAUUUUAUAUUCUGAAACCAAAU,2.66

# Set 2 — technique: DHFR PCA, deep sequencing; matrix: yeast; with: (+)-ABA 0 µM; relative to: wild-type fitted maximum; reading: higher = stronger binding
# Target: ABI1, truncated, D143A, DHFR fusion (Arabidopsis thaliana)
# Notes: methotrexate growth selection, single substitutions
# Starting sequence: PYL1, truncated, DHFR fusion (Arabidopsis thaliana); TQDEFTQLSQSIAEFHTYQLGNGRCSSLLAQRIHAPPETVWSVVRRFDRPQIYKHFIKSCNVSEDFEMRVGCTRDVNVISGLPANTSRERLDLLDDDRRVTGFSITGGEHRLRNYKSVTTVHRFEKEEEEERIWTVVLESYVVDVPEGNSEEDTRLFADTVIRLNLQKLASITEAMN; partner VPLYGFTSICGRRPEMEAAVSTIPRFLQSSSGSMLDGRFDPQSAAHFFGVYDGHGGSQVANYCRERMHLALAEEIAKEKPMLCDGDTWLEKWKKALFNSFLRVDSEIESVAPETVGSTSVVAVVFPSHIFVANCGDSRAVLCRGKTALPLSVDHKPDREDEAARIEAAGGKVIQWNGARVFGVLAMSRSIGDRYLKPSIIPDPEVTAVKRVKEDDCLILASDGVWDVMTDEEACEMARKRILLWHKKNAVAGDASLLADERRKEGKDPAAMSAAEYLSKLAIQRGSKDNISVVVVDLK
Change,relative binding score
R45C,2.33%
G102S,0.236%
N165W,5.23%
S27H,0.113%
R69F,1.16%
A30N,0.544%
T39S,5.16%
T135A,-6.7%
L156I,0.891%
L20K,44.9%
Q19L,0.197%
N77M,34%
V78R,37.3%

# Set 3 — technique: RNAcompete; molecule type: RNA; matrix: in vitro; tested at: 20 nM; notes: 7-mer, probes averaged, single round; relative to: mean of 7-mers; reading: higher = stronger binding
# Target: PABPC1L2, full length, GST fusion (mouse, UniProt A0ABA7IW68)
# Target sequence (chain): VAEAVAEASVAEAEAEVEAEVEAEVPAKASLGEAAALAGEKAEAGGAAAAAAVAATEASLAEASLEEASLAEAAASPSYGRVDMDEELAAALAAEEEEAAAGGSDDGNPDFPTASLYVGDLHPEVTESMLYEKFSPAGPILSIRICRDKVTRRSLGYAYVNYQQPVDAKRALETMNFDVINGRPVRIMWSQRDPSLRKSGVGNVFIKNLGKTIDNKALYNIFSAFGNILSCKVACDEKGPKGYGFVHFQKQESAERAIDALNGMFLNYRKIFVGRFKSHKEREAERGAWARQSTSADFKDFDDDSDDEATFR
Strand,7-mer Z-score
UUCUCGU,-0.418
CUAUAGA,-0.0192
GGUGAUA,0.0696
ACCUAUU,-0.271
UAAAAGA,3.63
CAUCUAC,-0.208
GUUACCC,-0.219
GGUGCCA,0.24
GCUGUUU,-0.445
CCGCGUG,-0.213
AUAGUCU,-0.327
GUGGGAG,0.189
GCAAGGC,0.0406
CGGAGAC,0.0569
AGAAAGA,2.18
ACUUGCG,-0.209
GUUUUAC,-0.3
UUCGCGG,-0.333
CCCUAGG,-0.307
UCGAUAU,-0.278

# Set 4 — technique: protein binding microarray; molecule type: double-stranded DNA, one strand shown; matrix: in vitro; tested at: not given; relative to: not given; reading: higher = stronger binding
# Target: Histone acetyltransferase KAT6A, winged helix 1, GST fusion (KAT6A, Homo sapiens, UniProt Q92794, residues 1-85)
# Notes: 8-mer, flanks averaged, mean of 2 arrays, mostly near background
# Target sequence (chain): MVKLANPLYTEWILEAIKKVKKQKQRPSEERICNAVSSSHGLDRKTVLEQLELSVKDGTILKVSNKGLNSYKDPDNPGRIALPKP
Strand,E-score
CAAGACCG,0.176
CTTCAAAG,-0.241
AATAAAAT,-0.17
AAGGCCGC,0.34
AAAGCTCT,-0.0172
AACTAAAA,-0.147
GTTCGACA,-0.145
CCCAGGGG,-0.213
CGAACAGC,0.099
ATAGAAAC,-0.12
TTGACAAA,-0.058
CTCGCCTC,-0.14
GCGGGCAA,0.228
GGGCAGTA,0.0194
CAGGGATC,-0.17
GTCGAGAA,-0.192

# Set 5 — target: CCNA1, cyclin fold, Cln2 fusion (human); technique: yeast growth competition, sequencing; matrix: yeast; notes: weak parent motif; relative to: not given; reading: higher = stronger binding
# Starting sequence: BRCA2 docking peptide (human); PSIKRNLLNEFDR; partner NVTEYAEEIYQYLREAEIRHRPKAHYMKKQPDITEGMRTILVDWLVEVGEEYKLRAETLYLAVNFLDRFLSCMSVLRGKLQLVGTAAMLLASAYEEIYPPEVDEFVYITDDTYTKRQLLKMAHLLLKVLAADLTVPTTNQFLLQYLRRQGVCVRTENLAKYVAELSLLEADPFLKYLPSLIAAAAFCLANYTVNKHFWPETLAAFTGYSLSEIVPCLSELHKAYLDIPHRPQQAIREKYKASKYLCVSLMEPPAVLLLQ
Change,normalised enrichment score
PSIKRNLLNTFDR [E10T],-0.492
PSIERNLLNEFDR [K4E],0.13
PSIKRNLLNEFHR [D12H],0.198
PSIKWNLLNEFDR [R5W],0.0658
PSIKRNYLNEFDR [L7Y],0.0865
PSFKRNLLNEFDR [I3F],0.239
PSIKRNLLQEFDR [N9Q],0.548
PSIKRNLLNEFSR [D12S],0.329
PSIKRNLLNKFDR [E10K],-0.136
PSIKRNLLNEFDV [R13V],0.381
MSIKRNLLNEFDR [P1M],0.332
PSIKRFLLNEFDR [N6F],0.398
PSIKRNILNEFDR [L7I],0.833
PSIKRNLLNEDDR [F11D],0.339
PSIKRNLLNEGDR [F11G],0.567
PPIKRNLLNEFDR [S2P],0.189
PSIKRNLLNEFQR [D12Q],0.97
PSNKRNLLNEFDR [I3N],0.212
PIIKRNLLNEFDR [S2I],0.198

# Set 6 — technique: competition protein-binding microarray; molecule type: double-stranded DNA, one strand shown; matrix: in vitro; tested at: 2 µM; with: Cbf1 competitor, 0.05 µM; reading: higher = stronger binding; constant ends, left off below: … GTCTTGATTCGCTTGACGCTGCTG
# Target: Phosphate system positive regulatory protein PHO4, full length, GST-tagged (PHO4, Saccharomyces cerevisiae, UniProt P07270, residues 1-312)
# Notes: whole 60-bp probe, lowest competitor level
# Residues (chain): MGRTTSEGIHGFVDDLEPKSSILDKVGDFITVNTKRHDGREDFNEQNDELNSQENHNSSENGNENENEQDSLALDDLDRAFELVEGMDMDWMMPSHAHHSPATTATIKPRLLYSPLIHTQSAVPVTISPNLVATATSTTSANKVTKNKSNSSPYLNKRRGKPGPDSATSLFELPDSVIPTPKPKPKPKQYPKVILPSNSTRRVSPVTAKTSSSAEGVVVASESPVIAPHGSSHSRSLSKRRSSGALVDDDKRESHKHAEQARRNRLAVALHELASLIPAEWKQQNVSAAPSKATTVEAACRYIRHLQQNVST
Strand,fluorescence intensity [a.u.]
CCGAATGATAGCGTCAGCGTGCAAACTGTGAACGCA,6550
TCTTTACCTTTGTTCCACGTGTCGGTCCGTACAATT,16800
CGTCCTAGTGATTGGGTCGTGGGTGCCATGAGGAAG,10600
TTTTAAGGGTTTCGCCATGTGGCATGCCACCGGCAA,8780
CTTCTGTAAATTTGGGGGGTGGGTGGACGCGCCCCG,5330
CCTTTGGAGCAGAGGCACCTGATAATGGAAGCGGTG,3700
AAAGCGGTAATTTGAGACGTGGGTGCAGATATCTAT,6470
TAACTAATAAGTAGTCACCTGACTGTGATATAAATT,4040
GCAAGAAGTAACTGGCGTGTGCACAAGAATACTTGT,6700

# A few entries again (set 4):
Strand,E-score
CGAACAGC,0.099
AAAGCTCT,-0.0172
CAGGGATC,-0.17
CAAGACCG,0.176
ATAGAAAC,-0.12
CTTCAAAG,-0.241
AACTAAAA,-0.147
